Measurements collected from several papers.
Lines come from different studies, so protocols differ.

SMILES	test	system	conditions	measurement	result
C=C(C)[C@@H]1CC[C@]2(NCCN3CCS(=O)(=O)CC3)CC[C@]3(C)[C@H](CC[C@@H]4[C@@]5(C)CC=C(C6=CC[C@@](CF)(C(=O)O)CC6)C(C)(C)[C@@H]5CC[C@]43C)[C@@H]12	–	healthy human volunteers	oral, 500 mg, 7 days	subjects with muscle spasms	0%
CC(C)(C(=O)N1CCOc2c(C#N)cncc2C1)C(F)F	item: Restlessness	human	oral, 15 mg twice daily, 14 days, multiple ascending dose	subjects with adverse event	0%
Cc1cc(-c2nccc3c2ccn3CC(=O)Nc2ccc(-c3cnccn3)cn2)ccn1	–	human	20 mg once daily, multiple ascending dose	subjects with ventricular tachycardia	0%
COC(=O)N[C@H](C(=O)N1CCC[C@H]1c1ncc(-c2cc(F)c3c(c2)O[C@@H](c2cnc(C4CC4)s2)n2c-3cc3cc(-c4cnc([C@@H]5CCCN5C(=O)[C@@H](NC(=O)OC)C(C)C)[nH]4)ccc32)[nH]1)C(C)C	–	healthy adult human	oral, 180 mg, 6 days, compound alone	subjects with abdominal discomfort	0%
CN1C(=O)[C@@H](NC(=O)c2nnc(Cc3ccccc3)[nH]2)COc2cccnc21	–	human, fasted	oral, 200 mg single dose	subjects with headache	0%
CC[C@H](C)[C@H](NC(=O)[C@H](Cc1ccccc1)NC(=O)[C@H](CCC(=O)O)NC(=O)[C@H](CCCCNC(=O)COCCOCCNC(=O)COCCOCCNC(=O)CC[C@H](NC(=O)CCCCCCCCCCCCCCCCC(=O)O)C(=O)O)NC(=O)[C@H](C)NC(=O)[C@H](C)NC(=O)[C@H](CCC(N)=O)NC(=O)CNC(=O)[C@H](CCC(=O)O)NC(=O)[C@H](CC(C)C)NC(=O)[C@H](Cc1ccc(O)cc1)NC(=O)[C@H](CO)NC(=O)[C@H](CO)NC(=O)[C@@H](NC(=O)[C@H](CC(=O)O)NC(=O)[C@H](CO)NC(=O)[C@@H](NC(=O)[C@H](Cc1ccccc1)NC(=O)[C@@H](NC(=O)CNC(=O)[C@H](CCC(=O)O)NC(=O)C(C)(C)NC(=O)[C@@H](N)Cc1cnc[nH]1)[C@@H](C)O)[C@@H](C)O)C(C)C)C(=O)N[C@@H](C)C(=O)N[C@@H](Cc1c[nH]c2ccccc12)C(=O)N[C@@H](CC(C)C)C(=O)N[C@H](C(=O)N[C@@H](CCCNC(=N)N)C(=O)NCC(=O)N[C@@H](CCCNC(=N)N)C(=O)NCC(=O)O)C(C)C	–	healthy humans	subcutaneous, 0.25 to 1.5 mg weekly, escalated, 16 weeks, Mild severity	subjects with adverse events	75.9%
O=C(COc1ccc(Cl)cc1)NC12CC(c3nnc([C@H]4C[C@@H](OC(F)(F)F)C4)o3)(C1)C2	–	humans	concentration not given	subjects with any TEAE	73.7%
CN(C)C(=N)N=C(N)N	item: Nausea	healthy human	oral, dose not given	subjects with adverse event	4.2%
C[C@@H](N)c1cc(Cl)ccc1Cn1c(=S)[nH]c(=O)c2[nH]ccc21	–	human severe renal impairment	oral, 2.5 mg single dose	subjects with adverse events	10%
CC(=O)N(C)[C@H]1CCN(C(=O)c2cnc3c(c2)C[C@](C)(c2ccc(F)cc2)N3)C1	–	healthy male human	oral, dose not given, all doses pooled	subjects with AESIs	4.2%

Excerpt of the above:
SMILES	test	system	conditions	measurement	result
C=C(C)[C@@H]1CC[C@]2(NCCN3CCS(=O)(=O)CC3)CC[C@]3(C)[C@H](CC[C@@H]4[C@@]5(C)CC=C(C6=CC[C@@](CF)(C(=O)O)CC6)C(C)(C)[C@@H]5CC[C@]43C)[C@@H]12	–	healthy human volunteers	oral, 500 mg, 7 days	subjects with muscle spasms	0%
